# Experimental data collected from several papers.
# Each line is one published result; not all experiments were run side by side. ± gives the spread as reported.
# Organism: SARS-CoV-2
Compound,assay,test system,conditions,scale,measurement,result
Nc1ccn(C[C@@H](CO)OCP(=O)(O)O)c(=O)n1,viral replication,Huh-7,,,IC50,> 2 µM
O=C(/C=C/c1ccc(O)c(O)c1/C=C/c1ccc(O)c(O)c1)O[C@H](Cc1ccc(O)c(O)c1)C(=O)O,viral replication,Vero E6,1.562 µM,,CPE inhibition,0%
CCn1cc(-c2ccnc3[nH]c(-c4cccc(CN(C)C)c4)cc23)c(-c2ccc(NC(=O)N(C)C)cc2)n1,"viral replication, GFP plate reader screen",,cell-based,,EC50,> 100 µM
COc1cc(OC)c2c(=O)[nH]c(-c3cc(C)c(OCCO)c(C)c3)nc2c1,,,"concentration not given, Paris laboratory",,viral replication inhibition,inactive
Cc1ccc(-c2cccc(CN3CCCC(c4nc5ccc(C)cc5c(=O)[nH]4)C3)c2)c(C)c1 (centres unmarked),cytopathic effect,USA_WA1/2020,"retest, 8-point, duplicates",,efficacy,98%
COc1ccc(-c2sc(NC(=O)C(C)(C)C)nc2C)cc1S(=O)(=O)Nc1ccc(O)cc1,,,"concentration not given, Paris laboratory",,viral replication inhibition,inactive
CN1CC[C@@]23CCCC[C@@H]2[C@@H]1Cc1ccc(O)cc13,"viral replication, RT-qPCR",A549 expressing ACE2,,,IC50,> 10 µM
COc1cc2c(cc1OCC1CC1)NC(=O)C21CCN(c2cc(NC3CC3)ncn2)CC1,"cytopathic effect, cell-based CPE",USA_WA1/2020,"round 1, 5-point dilution",,AC50,15.8 µM
O=C(O[C@@H]1Cc2c(O)cc(O)cc2O[C@@H]1c1cc(O)c(O)c(O)c1)c1cc(O)c(O)c(O)c1,viral replication,Vero E6,1.562 µM,,CPE inhibition,0%
CNCC(O)c1ccc(OC(=O)C(C)(C)C)c(OC(=O)C(C)(C)C)c1 (centres unmarked),viral replication,Huh-7,,,IC50,> 2 µM
CN(C)CCC(c1ccc(Cl)cc1)c1ccccn1 (centres unmarked),viral replication,A549 expressing ACE2,inactive set pIC50 4,,IC50,> 10 µM
CC1=C[C@]23C(=O)[C@@H](C=C(CO)[C@@H](O)[C@]2(O)[C@H]1O)[C@H]1[C@@H](C[C@H]3C)C1(C)C,viral replication,Huh-7,,,IC50,> 2 µM
CC(C)(C)c1ccc(CN2CCN(C(c3ccccc3)c3ccc(Cl)cc3)CC2)cc1 (centres unmarked),"viral replication, GFP plate reader screen",,cell-based,,EC50,> 100 µM
Clc1ccc(C(OCCN2CCCCC2)c2ccccc2)cc1 (centres unmarked),viral replication,Vero E6,concentration not given,,activity class,active
CC(C)CC(NC(=O)OCc1ccccc1)C(=O)NC(C(=O)NCC(=O)C=[N+]=[N-])C(C)C (centres unmarked),viral replication,"Huh-7-ACE2, USA-WA1/2020",,,EC90,0.107 µM
Cc1nn(-c2ccc(Cl)cc2)c2c1C(c1c(Cl)cccc1Cl)C(C#N)=C(N)O2 (centres unmarked),,Vero,10 µM,,viral titre,568000 IU/mL
Cc1ccccc1NC(=N)Nc1ccccc1C,"viral replication, RT-qPCR",A549 expressing ACE2,,,IC50,> 10 µM
Cc1oc(-c2cccc(Cl)c2)nc1CN1CCCC(C(=O)NCCc2ccc(Cl)cc2)C1 (centres unmarked),"cytopathic effect, cell-based CPE",USA_WA1/2020,"round 1, 5-point dilution",,AC50,12.6 µM
CC(C)(C)[C@]1(O)CCN2C[C@@H]3c4ccccc4CCc4cccc(c43)[C@H]2C1,"viral replication, RT-qPCR",A549 expressing ACE2,,,IC50,> 10 µM
"CCN(CCO)CCCC(C)Nc1ccnc2cc(Cl)ccc12 (single isomer, unassigned)","viral replication, high-content imaging screen",BetaCov/Belgium/GHB-03021/2020,cell-based,,EC50,> 50.1 µM
CCC1CCCCN1CCCNC(=O)c1sc2nc(C)cc(C)c2c1-n1cccc1 (centres unmarked),"cytopathic effect, cell-based CPE",USA_WA1/2020,"round 1, 5-point dilution",,AC50,12.6 µM
O=C(O)c1ccc(N2C(=O)/C(=C/c3ccc(-c4ccc([N+](=O)[O-])cc4)o3)C=C2c2ccccc2)cc1,viral replication,Huh-7,,,IC50,> 2 µM
CC(C)=CCc1c(O)ccc(C(=O)/C=C/c2ccc(O)cc2)c1O,viral replication,Vero E6,1.562 µM,baseline: mean of replicates,CPE inhibition,0%
CCC(CC)COC(=O)[C@H](C)N[P@](=O)(OC[C@H]1O[C@@](C#N)(c2ccc3c(N)ncnn23)[C@H](O)[C@@H]1O)Oc1ccccc1,"viral replication, GFP plate reader screen",,cell-based,,EC50,4.64 µM
COc1cccc(-c2ccc(CN3CCCC(c4nc5ccc(C)cc5c(=O)[nH]4)C3)cc2)c1 (centres unmarked),cytopathic effect,USA_WA1/2020,"round 2, 5-point",,efficacy,99.4%
CCC(CC)COC(=O)[C@H](C)N[P@](=O)(OC[C@H]1O[C@@](C#N)(c2ccc3c(N)ncnn23)[C@H](O)[C@@H]1O)Oc1ccccc1,"RT-qPCR, measured: viral RNA",Vero,10 µM,higher means less virus,Ct value,26.8 cycles
O=C(NCCCN1CCCCCC1)c1ccc2c(c1)sc1nc(-c3ccccc3)cn12,cytopathic effect,USA_WA1/2020,"retest, 8-point, duplicates",,maximum response,70.6%
CCc1ccc(CCOc2ccc(CC3SC(=O)NC3=O)cc2)nc1 (centres unmarked),,Vero E6,"concentration not given, NYC laboratory",,viral replication inhibition,inactive
CN(C)CCON=C1c2ccccc2CCc2ccccc21,"viral replication, GFP plate reader screen",,cell-based,,EC50,14.1 µM
Cn1cnc(Cn2c(=O)[nH]/c(=N\c3cc4cn(C)nc4cc3Cl)n(Cc3cc(F)c(F)cc3F)c2=O)n1,viral replication,Omicron BA.1 strain,48 h,,EC90,0.16 ± 0.057 µM
Cc1nn(-c2ccc(Cl)cc2)c2c1C(c1ccc(I)cc1)C(C#N)=C(N)O2 (centres unmarked),,Vero,10 µM,,viral titre,442000 IU/mL
CCCCN(CCCC)CCCOc1ccc(C(=O)c2c(CC)cc3ccccn23)cc1,"viral replication, high-content imaging screen",,cell-based,,EC50,> 100 µM
CC(C)(C)[C@H](NC(=O)C(F)(F)F)C(=O)N1C[C@H]2[C@@H]([C@H]1C(=O)N[C@H](C#N)C[C@@H]1CCNC1=O)C2(C)C,"viral replication, infectious virus",Vero E6,0.0039 µM,,inhibition,3.28%
Cc1noc2c1-c1ccccc1C(c1ccc(Cl)cc1)=N[C@H]2CC(N)=O,,Vero E6,"concentration not given, NYC laboratory",,viral replication inhibition,inactive
C[C@@H]1CS/C(=N\NC(=O)C(=O)[C@H](NC(=O)C2CCCCCC2)C2CCOCC2)N1C,viral replication,"Vero E6, USA-WA1/2020",2.5 µM,,inhibition,87.2%
Cc1ccc2c(NC(C)c3ccccc3)nc(N3CCNCC3)nc2c1 (centres unmarked),"cytopathic effect, cell-based CPE",USA_WA1/2020,"round 2, 5-point dilution",,maximal response,92.5%
COc1cc(C2C(C#N)=C(N)Oc3c2c(C)nn3-c2ccc(Cl)cc2)cc(OC)c1OC (centres unmarked),"RT-qPCR, measured: viral RNA",Vero,10 µM,higher means less virus,Ct value,24.9 cycles
COc1ccc(C[C@@H]2c3cc(Oc4cc(C[C@@H]5c6cc(O)c(OC)cc6CCN5C)ccc4O)c(OC)cc3CCN2C)cc1,viral replication,Vero E6,1.562 µM,,CPE inhibition,0%
CNCC(O)CC12CCC(c3ccccc31)c1ccccc12 (centres unmarked),"viral replication, high-content imaging screen",,cell-based,,EC50,> 100 µM
Cc1nn(-c2ccc(Cl)cc2)c2c1C(c1ccc(Cl)cc1)C(C#N)=C(N)O2 (centres unmarked),"RT-qPCR, measured: viral RNA",Vero,10 µM,higher means less virus,Ct value,25.5 cycles
CCCSc1ccccc1N1CCN(CCCCn2c(=O)[nH]c3ccccc3c2=O)CC1,"viral replication, high-content imaging screen",,cell-based,,EC50,> 100 µM
CC(C)(O)c1ccc2c(c1)C(=CCCN1CCC(O)(c3ccc(Cl)cc3)C(C)(C)C1)c1cccnc1CO2 (centres unmarked),"viral replication, inhibitor","Vero E6, USA-WA1/2020",24 h,,EC90,> 2.5 µM
CCCCSCCCNC(=O)C1CCN(Cc2nc(-c3ccc(CC)cc3)oc2C)CC1,"cytopathic effect, cell-based CPE",USA_WA1/2020,"round 2, 5-point dilution",,efficacy,99%
COC(=O)NCCc1c(C(O)c2ccccc2)[nH]c2ccc(OC)cc12 (centres unmarked),"viral replication, FISH-Flow dsRNA staining",Vero C1008 (VeroE6),1 µM,,antiviral activity,inactive
